Measurements gathered from unrelated publications.

SMILES | test system | setting | Tmax
CC1(O)CC23CC(O)C4(O)C(C5OC5C4(C)C)C(C)(O)C2CCC1C3O (centres unmarked) | mouse, plasma | oral, 0.2 mg/kg | 4.98 min
CCCCCCCC(=O)NC[C@H](NC(=O)[C@H](CO)NC(=O)CN)C(=O)N[C@@H](Cc1ccccc1)C(=O)N[C@@H](CC(C)C)C(=O)N[C@@H](CO)C(=O)N1CCC[C@H]1C(=O)N[C@@H](CCC(=O)O)C(=O)N[C@@H](Cc1c[nH]cn1)C(=O)N[C@@H](CCC(N)=O)C(=O)N[C@@H](CCCNC(=N)N)C(=O)N[C@H](C(=O)N[C@@H](CCC(N)=O)C(=O)N[C@H](C(=O)N[C@@H](CCCNC(=N)N)C(=O)N1CCC[C@H]1C(=O)N1CCC[C@H]1C(=O)N[C@@H](Cc1c[nH]cn1)C(=O)N[C@@H](CCCCN)C(=O)N[C@@H](C)C(=O)N1CCC[C@H]1C(=O)N[C@@H](Cc1c[nH]cn1)C(=O)N[C@H](C(=O)N[C@H](C(=O)O)C(C)C)C(C)C)C(C)C)C(C)C | mouse, plasma | intraperitoneal, 7.2 mg/kg | 5 min
O=c1cc(-c2ccccc2)oc2c(Br)c(O)c(O)c(O)c12 | C57BL/6 mouse, plasma | oral, 50 mg/kg, single dose | 120 min
NC1CCN(C(=O)OC2CCCC3(C2)OOC2(O3)C3CC4CC(C3)CC2C4)CC1 (centres unmarked) | mouse, plasma | oral, 50 mg/kg, single dose | 120 min
CC(C)[C@H]1NC(=O)C[C@H]2/C=C/CCSSC[C@@H](NC1=O)C(=O)N[C@H](Cc1cccc3ccccc13)C(=O)NCC(=O)O2 | nude mouse, blood | oral, 12 mg/kg | 15 min
CCCCCCCC(=O)OC[C@H](NC(=O)[C@H](CO)NC(=O)CN)C(=O)N[C@@H](Cc1ccccc1)C(=O)N[C@@H](CC(C)C)C(=O)N[C@@H](CO)C(=O)N1CCC[C@H]1C(=O)N[C@@H](CCC(=O)O)C(=O)N[C@@H](Cc1cnc[nH]1)C(=O)N[C@@H](CCC(N)=O)C(=O)N[C@@H](CCCNC(=N)N)C(=O)N[C@H](C(=O)N[C@@H](CCC(N)=O)C(=O)N[C@@H](CCC(N)=O)C(=O)N[C@@H](CCCNC(=N)N)C(=O)N[C@@H](CCCCN)C(=O)N[C@@H](CCC(=O)O)C(=O)N[C@@H](CO)C(=O)N[C@@H](CCCCN)C(=O)N[C@@H](CCCCN)C(=O)N1CCC[C@H]1C(=O)N1CCC[C@H]1C(=O)N[C@@H](C)C(=O)N[C@@H](CCCCN)C(=O)N[C@@H](CC(C)C)C(=O)N[C@@H](CCC(N)=O)C(=O)N1CCC[C@H]1C(=O)N[C@@H](CCCNC(=N)N)C(=O)O)C(C)C | mouse, plasma | intraperitoneal, 7.2 mg/kg | 5 min
CC[C@H](C)[C@@H]1NC(=O)[C@H](Cc2ccc(O)cc2)NC(=O)[C@@H](N)CSSC[C@@H](C(=O)N2CCC[C@H]2C(=O)N[C@@H](CCCCNC(=O)COCCOCCNC(=O)COCCOCCNC(=O)CC[C@H](NC(=O)CC[C@H](NC(=O)CCCCCCCCCCCCCCCCC(=O)O)C(=O)O)C(=O)O)C(=O)NCC(N)=O)NC(=O)[C@H](CC(N)=O)NC(=O)[C@H](CCC(N)=O)NC1=O | C57BL/6 mouse, plasma | intraperitoneal, 1 mg/kg, single dose | 60 to 240 min
COc1ccc(F)cc1S(=O)(=O)Nc1cnc2c(c1)C(=O)NCCO2 | male C57BL/6 mouse, plasma | oral, 0.3 mg/kg, single dose | 60 min

Excerpt of the above:
SMILES | test system | setting | Tmax
CC1(O)CC23CC(O)C4(O)C(C5OC5C4(C)C)C(C)(O)C2CCC1C3O (centres unmarked) | mouse, plasma | oral, 0.2 mg/kg | 4.98 min
